Results collected from several papers.
Lines come from different studies, so protocols differ.
Target: Prostaglandin G/H synthase 2 (PTGS2, Homo sapiens, UniProt P35354)
UniProt P35354, sequence (whole entry, looked up): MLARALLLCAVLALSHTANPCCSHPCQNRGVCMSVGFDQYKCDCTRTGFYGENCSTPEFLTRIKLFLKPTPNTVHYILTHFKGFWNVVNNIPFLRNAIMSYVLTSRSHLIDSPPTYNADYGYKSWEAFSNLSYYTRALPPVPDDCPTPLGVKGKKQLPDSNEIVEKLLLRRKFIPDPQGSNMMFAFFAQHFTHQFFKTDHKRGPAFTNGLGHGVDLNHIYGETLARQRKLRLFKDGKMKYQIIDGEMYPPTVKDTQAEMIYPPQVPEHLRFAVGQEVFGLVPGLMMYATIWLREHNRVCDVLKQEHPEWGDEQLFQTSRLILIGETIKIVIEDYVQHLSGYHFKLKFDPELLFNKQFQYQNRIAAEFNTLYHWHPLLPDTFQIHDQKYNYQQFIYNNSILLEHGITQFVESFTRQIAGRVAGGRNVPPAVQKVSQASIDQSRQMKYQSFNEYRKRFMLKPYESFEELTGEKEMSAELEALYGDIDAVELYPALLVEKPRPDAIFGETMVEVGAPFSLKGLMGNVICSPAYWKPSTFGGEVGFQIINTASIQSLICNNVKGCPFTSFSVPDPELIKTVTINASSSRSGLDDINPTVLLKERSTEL
Effect on: enzyme activity
Action: inhibitor

The IC50 of `COC(=O)c1ccc(-n2nc(-c3ccccc3O)nc2-c2ccccc2O)cc1` is reported as 1.12 µM.
For `COc1cc(OC)c(C(=O)/C=C/c2ccc(N(C)CCO)cc2)c(OC)c1`, the IC50 was 8.38 µM (ELISA).
For `Cc1ccc(C2Nc3nnc(-c4ccncc4)n3C(N)=C2C#N)cc1` (stereo not shown), the IC50 was 55.7 µM.
The IC50 of `CC(=O)c1cc2ccccc2oc1=Nc1nccs1` is reported as 0.33 µM (ELISA).
The IC50 of `Cc1ccc(C(=O)/C=C/c2ccc(N(C)CCO)cc2)o1` is reported as 10.1 µM (ELISA).
`CCCCCCCCCCCC1=C(O)C(=O)C=C(NCCN2CCOCC2)C1=O` has an IC50 of 1.54 µM (ELISA).
For `N#CC1=C(N)n2c(nnc2-c2ccncc2)NC1c1ccc(Br)cc1` (stereo not shown), the IC50 was 59.6 µM.
`O=[N+]([O-])c1cccc(C2=Nn3c(nnc3-c3ccc(-n4nc(-c5ccccc5O)nc4-c4ccccc4O)cc3)SC2)c1` gave an IC50 of 79.5 µM.
The IC50 of `O=C(Cc1ccccc1Nc1c(Cl)cccc1Cl)NNC(=S)Nc1ccc(Cl)c(Cl)c1` is reported as 1.29 µM.
`COc1cc(OC)cc(C(=O)/C=C/c2ccc(N(C)CCO)cc2)c1` gave an IC50 of 4.78 µM (ELISA).
For `N#CC1=C(N)n2c(nnc2-c2ccncc2)NC1c1ccc(Cl)cc1` (stereo not shown), the IC50 was 23.6 µM.
With `CCN(CC)c1ccc(/C=C/C(=O)C(c2ccccc2)c2ccccc2)cc1` the IC50 was 51.2 µM (ELISA).
`CC(C)[C@H](NC(=O)[C@H](CCC(=O)O)NC(=O)[C@@H](NC(=O)[C@@H](C)c1cccc(C(=O)c2ccccc2)c1)C(C)C)C(=O)N[C@@H](CCC(=O)O)C(=O)O` has an IC50 of 4.8 µM (fluorescence).

Repeated from above:
The IC50 of `O=C(Cc1ccccc1Nc1c(Cl)cccc1Cl)NNC(=S)Nc1ccc(Cl)c(Cl)c1` is reported as 1.29 µM.
